Published values pooled from the literature.
Each numbered part is a random draw from the data of one study; scales do not carry over between parts. Changes are numbered by the printed parent chain.

Block 1
Target: ABI1, truncated, D143A, DHFR fusion (Arabidopsis thaliana)
Method: DHFR PCA, deep sequencing
Medium: yeast
Setting: methotrexate growth selection, single substitutions
Together with: (+)-ABA 0.0091 µM
Reference: wild-type fitted maximum
Reading: higher = stronger binding
Parent: PYL1, truncated, DHFR fusion (Arabidopsis thaliana); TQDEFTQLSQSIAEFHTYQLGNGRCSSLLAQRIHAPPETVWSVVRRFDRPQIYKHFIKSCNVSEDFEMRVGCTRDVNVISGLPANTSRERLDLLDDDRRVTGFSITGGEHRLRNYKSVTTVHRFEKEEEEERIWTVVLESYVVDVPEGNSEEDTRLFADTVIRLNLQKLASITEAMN
Under “relative binding score”, `F15W` is recorded as 27.6%.
For `T120N`, “relative binding score” read -2.71%.
`I172R`: “relative binding score” -2.71%.
For `E67H`, “relative binding score” read 5.99%.
`P37M`: “relative binding score” 1.85%.
`T160I` — result for “relative binding score”: -3.75%.
`T6Y`: “relative binding score” 33.7%.
Under “relative binding score”, `T173A` is recorded as 27.1%.
`A13C` — result for “relative binding score”: 4.68%.
Under “relative binding score”, `A84W` is recorded as 109%.
`G81H` — result for “relative binding score”: 1.5%.
`R111S`: “relative binding score” 5.91%.
For `E127R`, “relative binding score” read 40.9%.
Under “relative binding score”, `T86M` is recorded as 25%.
Under “relative binding score”, `D95S` is recorded as -5.16%.
Under “relative binding score”, `H122I` is recorded as -9.69%.
`T119D` — result for “relative binding score”: -2.87%.

Block 2
Target: CCNA1, cyclin fold, Cln2 fusion (human)
Method: yeast growth competition, sequencing
Medium: yeast
Setting: weak parent motif
Reference: not given
Reading: higher = stronger binding
Parent: MICAL3 docking peptide (human); LQLRRQLSFSEDS; partner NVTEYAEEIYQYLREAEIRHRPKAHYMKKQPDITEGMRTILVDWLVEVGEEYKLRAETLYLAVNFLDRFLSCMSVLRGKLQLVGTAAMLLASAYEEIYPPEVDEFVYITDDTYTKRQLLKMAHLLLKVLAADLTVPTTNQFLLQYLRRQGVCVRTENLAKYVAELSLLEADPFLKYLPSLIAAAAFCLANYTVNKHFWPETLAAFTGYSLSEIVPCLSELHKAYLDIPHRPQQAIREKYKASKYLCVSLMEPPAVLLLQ
For `LQLNRQLSFSEDS [R4N]`, “normalised enrichment score” read 0.0497.
For `LQLRCQLSFSEDS [R5C]`, “normalised enrichment score” read 0.292.
Under “normalised enrichment score”, `LQLRDQLSFSEDS [R5D]` is recorded as 0.151.
`LQLHRQLSFSEDS [R4H]`: “normalised enrichment score” -0.0502.
Under “normalised enrichment score”, `LQLRRQLSFSEMS [D12M]` is recorded as 0.421.
Under “normalised enrichment score”, `LQLTRQLSFSEDS [R4T]` is recorded as -0.0953.
`LQLRRQLWFSEDS [S8W]`: “normalised enrichment score” 0.224.
Under “normalised enrichment score”, `LKLRRQLSFSEDS [Q2K]` is recorded as 0.544.
`LQLRRQLSFLEDS [S10L]`: “normalised enrichment score” 0.408.
`LQLRRQSSFSEDS [L7S]` — result for “normalised enrichment score”: 0.0476.
For `LVLRRQLSFSEDS [Q2V]`, “normalised enrichment score” read 0.46.
`LQHRRQLSFSEDS [L3H]` — result for “normalised enrichment score”: 0.223.
`LQLCRQLSFSEDS [R4C]` — result for “normalised enrichment score”: 0.0875.
Under “normalised enrichment score”, `LQLRRQLSFNEDS [S10N]` is recorded as 0.423.
`LQLRRQLSFSEQS [D12Q]` — result for “normalised enrichment score”: 0.408.
`LQLRRQLSFSEGS [D12G]` — result for “normalised enrichment score”: 0.266.

Block 3
Target: RNA binding protein fox-1 homolog 2, RRM domain, GST-SBP tag (RBFOX2, Homo sapiens, UniProt O43251-10, residues 100-194)
Method: RNA Bind-n-Seq
Molecule type: RNA
Medium: in vitro
Concentration: 365 nM
Setting: natural RNA segment, single round, ends assumed
Reference: no-protein control
Reading: higher = stronger binding
Constant ends, left off below: GGGAGUUCUACAGUCCGACGAUC … UGGAAUUCUCGGGUGCCAA
Construct (chain): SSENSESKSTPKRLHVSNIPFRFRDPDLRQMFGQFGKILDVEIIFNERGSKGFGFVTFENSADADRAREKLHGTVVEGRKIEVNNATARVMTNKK
For `AUGUAUGUUUAAUAUAACAUGACAGGCACUAGGACGUCUGCCUUUUUAAGGCAGUUCCGUUAAGGGUUUUUGUUUUUAAACUUUUUUUUGCCAUCCAUCCUGUGCAAUAU`, “RBNS enrichment (R)” read 0.436.
For `UUUCAUUUUUUUCCUUUGAUUGAUACAACACUAUAAUUUUCAUUUCAGUUCCUUAGUCGUGUCUACUUACCUAGCAGUUUAGAAACUGUCAGUCAUGUAACUGGCAAGGA`, “RBNS enrichment (R)” read 0.817.
`GCUGCAACAUUUUGAUUCCUGUUAAUUUUGUUCUUUAAUUAAAUGACUACUUAUUGCAGGAAAUUAACCCAGGCUUUACAUUUUCUUGUGGUUGGGAUGAGUGGUACUUU` — result for “RBNS enrichment (R)”: 0.427.
`UUUCACUUUUUCCCAGCUGCGUCCACAGGAAAGGGGAGUCGGAUGCCAGCUGCACCCCGCCUGGCUCGCACAGGCUAAGACCACAGACAGAGCAGGGCUUCCCGGAGCCA`: “RBNS enrichment (R)” 0.655.
For `CACAGAUGUGAGCUACAGUUCGUUUCUGAAAGCUACCACAAGCUGGAAACUGGUGAUCAGUGUGGGGCUCACCUCUCCGUGGGUUAAAAAUGGUUUUAAAUGACACUGUA`, “RBNS enrichment (R)” read 0.437.
Under “RBNS enrichment (R)”, `GGGUGUCGGCUGCGGCAUUAAAUUCAUCAUCUCAACCCAGAGUGUCUGGUCUCCCUGCUCUUUCUGCAUGGUUGUGUCCCUAGUCCUAAGCUUUGGUUCUUUAGGGUGAC` is recorded as 6.45.
`UUUCUGUGAUUGUCAUUAAAAAAAAAUUUACUGUUGUGAUAAGAAUUUUAUUUGUUUUGUUUAAAGCUACAUGUGCUUUUUUCUGUAAAUAAUAAAUUUUUGUAGAUAGU` — result for “RBNS enrichment (R)”: 1.07.
For `UCUAAAAUUAAGUUUACCAAAGGCAAAUAACUGCUUACUAGGAACUUCCUUUAGCAAAAAUUACUAUAAAGUUCAGGACAGUUUGAAAUAAAACCCAGGAAACAAGAUUA`, “RBNS enrichment (R)” read 0.436.
`GAAAGUGGCCUAGUAACUCUGAGUAUUUUAAAGAAUGCUUUAUCAUUUUUUAAAGAUGUCAAGAAACUAGCUAUAGCUGCCUAAGAAUUGAAUCUAUUGUAUUUCCCUCU`: “RBNS enrichment (R)” 0.219.
Under “RBNS enrichment (R)”, `CUCCUGUUUGCCAGGGGAAAGAACCUAAAGACUUCGUGUGAUUGGGAGGGGUGGCAGACAGGAAGAAAACAUGUCCAGGCCCCUGGUCUCCAUAGAGAAUGGUGCUUUGU` is recorded as 1.13.
Under “RBNS enrichment (R)”, `AUGGUCACCAAAUUCUACUUCCAGGAGGACGAGUAUACUGCCCAGGCCUGCCUGUUCCCAUUCUUGCAUGGCAAGGACUGCAGGGACUGCCAGUCCCCCUGCCCCAGGGC` is recorded as 1.24.
For `CCUCUCUUUGCUAAAGCAGUGAAGGAAGAGAACAGAGACAAACUCUUUGGACUGUGAAAGAGAAGGUAGAGAAUUCCAGGCAACAGUCUGACCAAGGGUGUAAACCAGUU`, “RBNS enrichment (R)” read 0.506.

Block 4
Target: Histone acetyltransferase KAT6A, winged helix 1, GST fusion (KAT6A, Homo sapiens, UniProt Q92794, residues 1-85)
Method: protein binding microarray
Molecule type: double-stranded DNA, one strand shown
Medium: in vitro
Concentration: not given
Setting: 8-mer, flanks averaged, mean of 2 arrays, mostly near background
Reference: not given
Reading: higher = stronger binding
Residues (chain): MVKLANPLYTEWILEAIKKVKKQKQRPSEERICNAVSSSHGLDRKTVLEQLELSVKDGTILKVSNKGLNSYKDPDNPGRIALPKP
`CCGCCGCA` has an E-score of 0.43.
For `AGGTGACC`, the E-score was -0.149.
`CGAAGGAA` gave an E-score of -0.0892.
`CAGGCTCA` has an E-score of -0.2.
`CGCCTATA` gave an E-score of 0.265.
With `GACAATCA` the E-score was -0.0668.
With `GCACTAAA` the E-score was 0.0463.
For `GCAGCCAA`, the E-score was -0.0535.
The E-score of `CATTAAGG` is reported as -0.0206.
With `AGTGTGTC` the E-score was -0.0641.
`AGAGATCT` gave an E-score of -0.174.
`CGCGGCGA` has an E-score of 0.445.
With `CCAAGCTC` the E-score was -0.203.
With `AAGTAAAT` the E-score was -0.185.
With `GGCTAACA` the E-score was 0.126.
The E-score of `ACGCAGAC` is reported as 0.00517.
`AAGGTTGT` gave an E-score of -0.117.
For `AATTCCCG`, the E-score was 0.274.
`ACGCATAG` has an E-score of 0.195.
For `ACAATGTA`, the E-score was -0.151.
`CGCGGAAC` gave an E-score of 0.364.
`CATGTGCC` gave an E-score of -0.0373.

Block 5
Target: Centromere-binding protein 1, full length, N-terminal tag (CBF1, Saccharomyces cerevisiae, UniProt P17106, residues 1-351)
Chain of UniProt P17106 (whole entry, looked up): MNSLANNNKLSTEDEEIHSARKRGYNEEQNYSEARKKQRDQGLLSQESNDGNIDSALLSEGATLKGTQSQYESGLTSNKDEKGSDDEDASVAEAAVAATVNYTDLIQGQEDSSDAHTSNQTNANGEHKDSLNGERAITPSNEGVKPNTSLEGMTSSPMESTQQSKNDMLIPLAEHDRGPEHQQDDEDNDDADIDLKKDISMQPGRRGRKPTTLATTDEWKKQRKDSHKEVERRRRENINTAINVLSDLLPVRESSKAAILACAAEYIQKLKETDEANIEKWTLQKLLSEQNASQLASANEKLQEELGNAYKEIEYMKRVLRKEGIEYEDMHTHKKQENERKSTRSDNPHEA
Method: protein-binding microarray
Molecule type: double-stranded DNA, one strand shown
Medium: in vitro
Concentration: 0.8 µM
Setting: whole 60-bp probe, no competitor
Reading: higher = stronger binding
Constant ends, left off below: … GTCTTGATTCGCTTGACGCTGCTG
The fluorescence intensity of `CTATATTCATCATATCGTGAGGTATGTAGGCATTTC` is reported as 532 a.u.
`CTATTTCGCCATAGCCATGTGCCTATATTAAATTTC` gave a fluorescence intensity of 775 a.u.
With `CTAGTATCTAGAGCGCTGGTGGTGGAGTTGCATTTC` the fluorescence intensity was 490 a.u.
For `CTATCTCGTATCTTTCGCCTGATAATATGAAAATTC`, the fluorescence intensity was 617 a.u.
`CTAATCAGTTCGTTTCGCGTGATAACAAACAGTTTC` gave a fluorescence intensity of 705 a.u.
The fluorescence intensity of `GAATTAAATACTAACAACGTGCCAAATAACAGCTAG` is reported as 1050 a.u.
`CTATTATGAGACTATATCATGACCATACCTTATTTC` gave a fluorescence intensity of 498 a.u.
With `GAAGAAGCCTTTGCACCTGATATAAAAAGTGTCTAG` the fluorescence intensity was 1000 a.u.
`TGTACGAAGCTATCAGCGGTGACTATAGTAGTTAGG` gave a fluorescence intensity of 491 a.u.
For `GAAGAAAAGAAACACCGCGTGGTGCATCTATGTTAG`, the fluorescence intensity was 699 a.u.
`CCTAACTACTATACCATCACTACATAGCTTCGTACA` gave a fluorescence intensity of 502 a.u.
`GAATTACTGTTGCATCATGTATAGGAGCTGCCCTAG` gave a fluorescence intensity of 545 a.u.
With `CTAGGGAACACCTTACGCGTGAGCTGTGCCCACTTC` the fluorescence intensity was 479 a.u.
`CTATTACTTACTGATCTCATGATCTCAGTGCAATTC` gave a fluorescence intensity of 837 a.u.
`GAAAACCGTCCCTGTCACGCTGGTGCCCCCACATAG` has a fluorescence intensity of 644 a.u.
`GAATTTAAATGTCATCACATGATGTTTCTTATATAG` has a fluorescence intensity of 3470 a.u.
`CTAGTATTTTTCCACCACGAACCGTAGATGGCTTTC` has a fluorescence intensity of 551 a.u.
`GAAATTGGGCCAAGGCACGTTTGGTAAAGTACTTAG` gave a fluorescence intensity of 506 a.u.
For `CTAACATCCCACATCCGCATGATAGGAGATGTGTTC`, the fluorescence intensity was 553 a.u.
`CCTAACTACTATAATGATGACACATAGCTTCGTACA` gave a fluorescence intensity of 533 a.u.
`CTATCCGTGCGAAGTGACCGCGTGGAAGGCCGGTTC` gave a fluorescence intensity of 558 a.u.
`CTACAAATATAAGATCACGCTATACTATCAATGTTC` gave a fluorescence intensity of 1160 a.u.
For `CTAGAAGCTGAAATGCACGGATTGATAATGTAATTC`, the fluorescence intensity was 527 a.u.
With `GAAGCCCCGATAATCCACATGATCATAAGGTCGTAG` the fluorescence intensity was 1230 a.u.
`GAATGACGGTACGTTCTGATGCTGCCTTGCTTGTAG` gave a fluorescence intensity of 477 a.u.

Further values, each from its own experiment
`PhoQ, residues 284 288 289 292 302 303 SCCLKL` has a fold induction of 8.79 (PhoP, residues 12 14 15 18 19 NYFTV (Escherichia coli, UniProt P23836); Sort-seq, measured: YFP reporter; E. coli; PhoQ-PhoP variant library, together with: 10 µM Mg2+; reference: high Mg2+ state, higher = stronger signaling).

For quick reference, copied from above (block 1):
For `T120N`, “relative binding score” read -2.71%.
Under “relative binding score”, `T86M` is recorded as 25%.
`T160I` — result for “relative binding score”: -3.75%.
Under “relative binding score”, `F15W` is recorded as 27.6%.
`A13C` — result for “relative binding score”: 4.68%.
Under “relative binding score”, `D95S` is recorded as -5.16%.
